Published values gathered from unrelated publications.
Every numbered part comes from another study and shows a few of its results, in no order.
UniProt P13945, sequence (whole entry, looked up): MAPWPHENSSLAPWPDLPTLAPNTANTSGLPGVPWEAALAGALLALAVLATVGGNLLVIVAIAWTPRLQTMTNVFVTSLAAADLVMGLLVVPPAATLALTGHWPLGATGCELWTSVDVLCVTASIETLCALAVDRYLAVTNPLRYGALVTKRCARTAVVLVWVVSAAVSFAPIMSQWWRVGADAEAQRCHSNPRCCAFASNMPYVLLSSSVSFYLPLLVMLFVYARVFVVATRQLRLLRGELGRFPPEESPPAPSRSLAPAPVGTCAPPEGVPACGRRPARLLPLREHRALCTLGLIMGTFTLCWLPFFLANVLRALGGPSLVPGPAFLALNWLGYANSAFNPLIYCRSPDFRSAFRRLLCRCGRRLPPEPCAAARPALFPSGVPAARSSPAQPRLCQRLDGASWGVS

Series 1 — cell line: mouse MPNST tumor cells; method: high-content immunofluorescence imaging; refers to: nuclear SOX9; concentration: 10 µM; time: 12 h; notes: mean of 2 replicates; baseline: DMSO control; direction: higher = more nuclear SOX9
For `COc1cc([C@@H]2c3cc4c(cc3[C@H](O)[C@H]3COC(=O)[C@H]23)OCO4)cc(OC)c1OC`, “nuclear SOX9 intensity” read 231 % of DMSO.
`CCC1(C)CC(=O)NC(=O)C1`: “nuclear SOX9 intensity” 103 % of DMSO.
`CCCCCC[C@H]1C(=O)O[C@H](C)[C@H](NC(=O)c2cccc(NC=O)c2O)C(=O)O[C@@H](C)[C@@H]1OC(=O)CC(C)C` — result for “nuclear SOX9 intensity”: 99.4 % of DMSO.
Under “nuclear SOX9 intensity”, `Cc1ncc(CN2CC=C(c3ccccc3)CC2)c(N)n1` is recorded as 91.8 % of DMSO.

Series 2 — cell line: HEK-293T/ACE2; time: 17.5 h
For `CC(CN(C)C)CN1c2ccccc2Sc2ccccc21` (stereo not drawn), the CC50 was 29.5 µM.
`CCN(CC)C(C)CN1c2ccccc2Sc2ccccc21` (stereo not drawn) gave a CC50 of 80.8 µM.
With `CN(C)CCCN1c2ccccc2Sc2ccccc21` the CC50 was 60.1 µM.
For `OCCN1CCN(CCCN2c3ccccc3Sc3ccc(Cl)cc32)CC1`, the CC50 was 27.4 µM.
The CC50 of `CCN(CC)CCN1c2ccccc2Sc2ccccc21` is reported as greater than 100 µM.
With `CN1CCN(CCCN2c3ccccc3Sc3ccccc32)CC1` the CC50 was 71 µM.

Series 3 — observed: enzyme activity; action: inhibitor; concentration: 10 µM
Target: Calcium/calmodulin-dependent protein kinase type II subunit alpha (CAMK2A, Homo sapiens, UniProt Q9UQM7)
UniProt Q9UQM7, sequence (whole entry, looked up): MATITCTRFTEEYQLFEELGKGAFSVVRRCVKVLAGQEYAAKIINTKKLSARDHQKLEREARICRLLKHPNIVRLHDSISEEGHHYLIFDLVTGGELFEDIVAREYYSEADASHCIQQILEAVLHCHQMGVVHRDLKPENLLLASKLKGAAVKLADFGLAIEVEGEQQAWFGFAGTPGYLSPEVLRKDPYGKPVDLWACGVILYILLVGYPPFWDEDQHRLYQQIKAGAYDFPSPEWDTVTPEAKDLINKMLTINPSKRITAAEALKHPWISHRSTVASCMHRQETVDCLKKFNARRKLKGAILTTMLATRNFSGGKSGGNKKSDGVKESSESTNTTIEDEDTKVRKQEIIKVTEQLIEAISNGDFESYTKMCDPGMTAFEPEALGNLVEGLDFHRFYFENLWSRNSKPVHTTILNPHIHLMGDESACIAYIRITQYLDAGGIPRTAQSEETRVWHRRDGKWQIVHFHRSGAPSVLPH
With `O=c1[nH]c2ccccc2n1CCCN1CCC(n2c(=O)[nH]c3cc(Cl)ccc32)CC1` the inhibition was 1%.
`COc1ccc(/C=C/c2cc(OC)cc(OC)c2)cc1` has an inhibition of -19%.
The inhibition of `OCC1=C[C@H](N[C@H]2C[C@H](CO)[C@@H](O[C@@H]3O[C@H](CO)[C@@H](O)[C@H](O)[C@H]3O)[C@H](O)[C@H]2O)[C@H](O)[C@@H](O)[C@@H]1O` is reported as 5%.
For `COC(=O)C[C@](O)(CCC(C)(C)O)C(=O)O[C@@H]1C(OC)=C[C@]23CCCN2CCc2cc4c(cc2[C@H]13)OCO4`, the inhibition was -7%.

Other studies, line by line
CDPK1: Calcium-dependent protein kinase 1 (CDPK1, Plasmodium falciparum, UniProt P62344)
UniProt P62344, sequence (whole entry, looked up): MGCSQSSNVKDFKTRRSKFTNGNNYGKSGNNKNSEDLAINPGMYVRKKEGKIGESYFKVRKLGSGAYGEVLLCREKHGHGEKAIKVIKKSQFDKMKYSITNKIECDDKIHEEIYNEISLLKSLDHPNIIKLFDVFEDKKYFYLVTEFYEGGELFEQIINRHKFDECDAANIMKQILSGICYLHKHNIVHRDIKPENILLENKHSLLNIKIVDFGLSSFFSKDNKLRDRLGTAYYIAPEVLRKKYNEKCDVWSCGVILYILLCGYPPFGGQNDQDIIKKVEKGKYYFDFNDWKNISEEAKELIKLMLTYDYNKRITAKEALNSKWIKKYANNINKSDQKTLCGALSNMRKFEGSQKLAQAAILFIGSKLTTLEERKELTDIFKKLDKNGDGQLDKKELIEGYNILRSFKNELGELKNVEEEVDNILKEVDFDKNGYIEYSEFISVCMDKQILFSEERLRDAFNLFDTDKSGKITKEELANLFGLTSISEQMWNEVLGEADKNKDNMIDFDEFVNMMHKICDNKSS
`Cc1c(N2CCNCC2)nc2ccc(Br)cc2c1C(=O)NC[C@H](CCC(=O)O)c1ccccc1Cl` gave an inhibition of -10.3% (ADRB3 (Homo sapiens, UniProt P13945); ligand displacement; 10 µM).
For `CCOC(=O)c1cc2cc(-c3cc(C(=O)NCc4ccc(C(=O)O)cc4)nn3C)ccc2[nH]1`, the remaining binding was 100% (CDPK1; cell-free assay, competition with immobilised ligand; 0.1 µM).
With `C[C@H](c1ccnc(Nc2nc3ccc(-c4cc(N(C)C)ncn4)cc3[nH]2)c1)N1CCN(C(=O)CC(F)(F)F)CC1` the remaining binding was 100% (CDPK1; cell-free assay, competition with immobilised ligand; 0.1 µM).
`Cn1nc(C(F)(F)F)cc1-c1cnc(N2CCc3cc(S(=O)(=O)Nc4c(F)cc(Cl)cc4F)cc(N4CCCC4=O)c32)nc1` has a remaining binding of 70% (CDPK1; cell-free assay, competition with immobilised ligand; 1 µM).

For quick reference, copied from above (series 2):
`CCN(CC)C(C)CN1c2ccccc2Sc2ccccc21` (stereo not drawn) gave a CC50 of 80.8 µM.
The CC50 of `CCN(CC)CCN1c2ccccc2Sc2ccccc21` is reported as greater than 100 µM.
